Results collected from several papers.
Compare with care: the assays were run in different laboratories. Numbers after ± are the reported error.
HLA class I histocompatibility antigen, A alpha chain allele A*02:01: HLA class I histocompatibility antigen, A alpha chain, allele A*02:01 (Homo sapiens, UniProt P04439)
HLA class I histocompatibility antigen, A alpha chain allele A*26:01: HLA class I histocompatibility antigen, A alpha chain, allele A*26:01 (Homo sapiens, UniProt P04439)
HLA class I histocompatibility antigen, A alpha chain allele A*01:01: HLA class I histocompatibility antigen, A alpha chain, allele A*01:01 (Homo sapiens, UniProt P04439)
HLA class I histocompatibility antigen, A alpha chain allele A*24:02: HLA class I histocompatibility antigen, A alpha chain, allele A*24:02 (Homo sapiens, UniProt P04439)
UniProt P02716, sequence (whole entry, looked up): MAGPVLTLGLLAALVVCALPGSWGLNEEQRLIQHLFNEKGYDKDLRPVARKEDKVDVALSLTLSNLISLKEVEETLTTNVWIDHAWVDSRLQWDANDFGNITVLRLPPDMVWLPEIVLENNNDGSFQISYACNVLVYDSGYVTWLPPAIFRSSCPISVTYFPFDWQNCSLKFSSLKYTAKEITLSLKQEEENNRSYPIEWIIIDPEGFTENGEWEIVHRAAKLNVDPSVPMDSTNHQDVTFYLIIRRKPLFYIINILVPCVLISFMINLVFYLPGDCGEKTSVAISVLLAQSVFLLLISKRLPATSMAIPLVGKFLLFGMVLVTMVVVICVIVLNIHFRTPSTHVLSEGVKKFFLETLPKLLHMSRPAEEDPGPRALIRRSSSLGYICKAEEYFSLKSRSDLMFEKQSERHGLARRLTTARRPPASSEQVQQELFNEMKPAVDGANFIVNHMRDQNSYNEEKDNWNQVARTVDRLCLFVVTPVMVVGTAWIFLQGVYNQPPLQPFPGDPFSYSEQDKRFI
UniProt P47989, sequence (whole entry, looked up): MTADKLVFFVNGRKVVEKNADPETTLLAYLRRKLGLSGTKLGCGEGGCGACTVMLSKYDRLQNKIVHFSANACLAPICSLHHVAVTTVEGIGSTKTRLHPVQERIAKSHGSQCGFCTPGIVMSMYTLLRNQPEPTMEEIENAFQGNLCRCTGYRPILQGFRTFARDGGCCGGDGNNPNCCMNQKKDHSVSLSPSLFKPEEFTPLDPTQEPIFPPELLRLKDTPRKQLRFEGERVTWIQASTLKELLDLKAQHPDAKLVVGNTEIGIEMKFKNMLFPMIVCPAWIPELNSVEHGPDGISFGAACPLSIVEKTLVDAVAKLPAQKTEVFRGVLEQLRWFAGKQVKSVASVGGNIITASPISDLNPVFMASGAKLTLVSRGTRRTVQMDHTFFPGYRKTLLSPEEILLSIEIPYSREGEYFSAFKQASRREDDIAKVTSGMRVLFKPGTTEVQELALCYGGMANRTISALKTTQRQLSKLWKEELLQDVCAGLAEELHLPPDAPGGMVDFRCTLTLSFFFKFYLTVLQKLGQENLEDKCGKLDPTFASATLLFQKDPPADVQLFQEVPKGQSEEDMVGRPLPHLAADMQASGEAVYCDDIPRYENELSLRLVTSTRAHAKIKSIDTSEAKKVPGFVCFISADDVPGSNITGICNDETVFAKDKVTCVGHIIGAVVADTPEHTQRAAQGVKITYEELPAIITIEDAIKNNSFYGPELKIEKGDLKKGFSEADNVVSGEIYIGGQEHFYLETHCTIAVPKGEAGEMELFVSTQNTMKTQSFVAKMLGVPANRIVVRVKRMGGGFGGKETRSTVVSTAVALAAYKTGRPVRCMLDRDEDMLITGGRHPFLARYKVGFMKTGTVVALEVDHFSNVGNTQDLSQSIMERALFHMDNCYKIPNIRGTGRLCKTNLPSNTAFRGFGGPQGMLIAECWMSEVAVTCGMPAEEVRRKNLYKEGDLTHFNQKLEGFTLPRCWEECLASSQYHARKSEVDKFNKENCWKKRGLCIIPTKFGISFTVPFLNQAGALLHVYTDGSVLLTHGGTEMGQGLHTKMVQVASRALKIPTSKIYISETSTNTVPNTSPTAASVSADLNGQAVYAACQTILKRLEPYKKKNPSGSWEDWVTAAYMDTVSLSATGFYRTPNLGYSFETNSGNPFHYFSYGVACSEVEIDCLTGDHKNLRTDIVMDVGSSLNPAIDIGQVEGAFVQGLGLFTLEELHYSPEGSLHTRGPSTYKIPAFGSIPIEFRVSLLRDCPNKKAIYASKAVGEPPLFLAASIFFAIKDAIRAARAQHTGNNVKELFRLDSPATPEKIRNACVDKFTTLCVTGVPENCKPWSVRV
UniProt P97612, sequence (whole entry, looked up): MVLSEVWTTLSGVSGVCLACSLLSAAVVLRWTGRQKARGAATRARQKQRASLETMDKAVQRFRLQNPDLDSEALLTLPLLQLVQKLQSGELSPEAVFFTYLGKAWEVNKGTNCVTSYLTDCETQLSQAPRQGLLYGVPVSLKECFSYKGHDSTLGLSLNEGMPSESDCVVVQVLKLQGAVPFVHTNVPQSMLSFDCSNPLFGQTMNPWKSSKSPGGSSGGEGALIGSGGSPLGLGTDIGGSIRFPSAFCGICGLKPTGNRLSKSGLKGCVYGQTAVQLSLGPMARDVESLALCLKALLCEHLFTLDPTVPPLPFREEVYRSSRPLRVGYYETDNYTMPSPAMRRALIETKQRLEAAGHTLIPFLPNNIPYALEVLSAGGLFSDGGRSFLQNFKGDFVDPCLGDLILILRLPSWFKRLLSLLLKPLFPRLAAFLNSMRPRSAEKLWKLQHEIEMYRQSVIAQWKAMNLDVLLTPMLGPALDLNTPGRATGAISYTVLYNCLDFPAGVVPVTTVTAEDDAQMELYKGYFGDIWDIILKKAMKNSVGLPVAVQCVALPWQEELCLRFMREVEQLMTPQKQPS
UniProt P04756, sequence (whole entry, looked up): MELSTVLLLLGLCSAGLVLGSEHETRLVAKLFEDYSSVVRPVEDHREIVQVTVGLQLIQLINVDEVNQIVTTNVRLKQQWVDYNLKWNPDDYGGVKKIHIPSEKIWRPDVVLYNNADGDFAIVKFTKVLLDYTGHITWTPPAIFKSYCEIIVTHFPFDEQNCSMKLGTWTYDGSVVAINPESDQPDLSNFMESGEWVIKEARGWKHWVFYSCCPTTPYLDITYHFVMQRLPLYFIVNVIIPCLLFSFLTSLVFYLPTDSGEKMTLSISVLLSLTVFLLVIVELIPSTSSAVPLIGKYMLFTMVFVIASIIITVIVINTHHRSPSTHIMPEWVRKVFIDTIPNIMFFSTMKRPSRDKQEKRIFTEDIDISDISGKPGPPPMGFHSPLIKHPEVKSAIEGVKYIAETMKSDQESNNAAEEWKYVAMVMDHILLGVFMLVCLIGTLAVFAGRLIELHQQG
UniProt P03023, sequence (whole entry, looked up): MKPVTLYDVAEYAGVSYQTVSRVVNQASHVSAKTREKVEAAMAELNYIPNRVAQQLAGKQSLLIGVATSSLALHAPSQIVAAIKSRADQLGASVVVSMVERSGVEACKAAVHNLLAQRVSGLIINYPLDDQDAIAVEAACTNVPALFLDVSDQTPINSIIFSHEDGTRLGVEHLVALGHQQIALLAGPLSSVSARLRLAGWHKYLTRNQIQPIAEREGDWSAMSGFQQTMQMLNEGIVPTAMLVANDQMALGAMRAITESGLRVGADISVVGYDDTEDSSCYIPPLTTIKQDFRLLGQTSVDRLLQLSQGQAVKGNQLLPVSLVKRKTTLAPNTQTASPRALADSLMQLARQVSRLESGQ
UniProt P20782, sequence (whole entry, looked up): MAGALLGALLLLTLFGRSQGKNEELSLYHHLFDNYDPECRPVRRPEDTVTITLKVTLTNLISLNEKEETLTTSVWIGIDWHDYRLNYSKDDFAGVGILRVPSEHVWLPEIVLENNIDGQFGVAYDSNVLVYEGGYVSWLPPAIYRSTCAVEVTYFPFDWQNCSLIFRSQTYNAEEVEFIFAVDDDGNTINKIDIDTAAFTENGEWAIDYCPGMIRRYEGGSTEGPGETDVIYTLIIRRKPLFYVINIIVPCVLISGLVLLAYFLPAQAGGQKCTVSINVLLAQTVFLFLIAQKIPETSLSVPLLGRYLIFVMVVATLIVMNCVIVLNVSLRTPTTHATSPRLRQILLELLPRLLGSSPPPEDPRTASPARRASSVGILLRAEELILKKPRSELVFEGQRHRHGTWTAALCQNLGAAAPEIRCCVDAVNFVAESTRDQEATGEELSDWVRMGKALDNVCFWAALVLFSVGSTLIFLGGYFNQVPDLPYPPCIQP
UniProt O15244, sequence (whole entry, looked up): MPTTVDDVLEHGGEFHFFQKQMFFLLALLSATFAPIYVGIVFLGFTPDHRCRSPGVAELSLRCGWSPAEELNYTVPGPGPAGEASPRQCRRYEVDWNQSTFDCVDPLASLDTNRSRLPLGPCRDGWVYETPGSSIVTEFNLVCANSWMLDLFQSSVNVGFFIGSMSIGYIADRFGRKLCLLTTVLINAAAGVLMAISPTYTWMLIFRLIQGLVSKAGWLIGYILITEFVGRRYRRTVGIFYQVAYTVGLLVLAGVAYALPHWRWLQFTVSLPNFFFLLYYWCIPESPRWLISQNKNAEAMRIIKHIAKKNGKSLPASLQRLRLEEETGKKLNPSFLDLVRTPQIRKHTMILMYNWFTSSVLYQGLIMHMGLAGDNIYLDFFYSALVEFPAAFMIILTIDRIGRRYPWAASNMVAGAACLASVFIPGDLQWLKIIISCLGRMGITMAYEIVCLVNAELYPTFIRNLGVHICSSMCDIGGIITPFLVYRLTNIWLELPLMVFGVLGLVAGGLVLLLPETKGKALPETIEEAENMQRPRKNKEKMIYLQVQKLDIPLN
UniProt Q15370, sequence (whole entry, looked up): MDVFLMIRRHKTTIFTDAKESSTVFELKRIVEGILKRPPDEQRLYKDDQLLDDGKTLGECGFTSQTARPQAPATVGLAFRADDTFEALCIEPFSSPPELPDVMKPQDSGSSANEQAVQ
UniProt P42575, sequence (whole entry, looked up): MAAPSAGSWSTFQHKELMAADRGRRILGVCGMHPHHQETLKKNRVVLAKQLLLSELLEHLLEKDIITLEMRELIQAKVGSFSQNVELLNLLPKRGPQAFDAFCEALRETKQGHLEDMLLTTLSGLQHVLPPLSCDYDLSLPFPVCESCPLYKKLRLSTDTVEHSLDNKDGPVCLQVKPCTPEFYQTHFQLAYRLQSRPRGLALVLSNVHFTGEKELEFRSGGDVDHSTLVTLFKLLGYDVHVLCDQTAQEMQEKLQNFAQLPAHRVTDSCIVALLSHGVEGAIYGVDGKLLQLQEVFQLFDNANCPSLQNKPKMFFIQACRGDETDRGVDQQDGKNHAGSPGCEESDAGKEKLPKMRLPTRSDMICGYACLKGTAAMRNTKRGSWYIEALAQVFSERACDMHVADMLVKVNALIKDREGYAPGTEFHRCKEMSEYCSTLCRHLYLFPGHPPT

The IC50 of `CSCC[C@H](NC(=O)[C@@H](N)CCCNC(=N)N)C(=O)N[C@@H](Cc1ccccc1)C(=O)N[C@@H](CCCCN)C(=O)N[C@@H](Cc1c[nH]cn1)C(=O)N1CCC[C@H]1C(=O)N[C@@H](CC(C)C)C(=O)N[C@@H](CCC(N)=O)C(=O)N[C@@H](Cc1ccccc1)C(=O)O` is reported as 7.43 µM (HLA class I histocompatibility antigen, A alpha chain allele A*02:01; binding).
`OC[C@H]1O[C@@H](OCCc2ccccc2)[C@H](O)[C@@H](O)[C@H]1O` has an IC50 of 560 µM (lacI (Escherichia coli, UniProt P03023); IPTG binding, competitor, nitrocellulose filter binding; repressor 2 µM monomer, no operator DNA, pH 7.4, together with: [14C]IPTG 250 nM).
`COc1ccc2c(c1NC(=O)OCc1ccc(NC(=O)[C@H](CCCNC(N)=O)NC(=O)[C@@H](NC(=O)CCCCCN3C(=O)C=CC3=O)C(C)C)cc1)CCCC=C2c1cc(OC)c(OC)c(OC)c1` gave an IC50 of 6.2 ± 0.3 µM (Tubulin alpha-1B chain/TUBB2B (Bos taurus, UniProt P81947+Q6B856); tubulin polymerization, inhibitor, turbidimetric; 20 min, 30 °C, together with: tubulin 10 µM).
`CCCCC/C=C\C/C=C\C/C=C\C/C=C\CCCC(=O)C(F)(F)F` has an IC50 of 3.98 µM (Fatty-acid amide hydrolase 1 (Faah, Rattus norvegicus, UniProt P97612); inhibitor; together with: FP-biotin 1 µM).
`CC[C@@H]1/C=C/C=C/C[C@H](C)[C@H](O)[C@](C)(O)C(=O)[C@H](C)[C@@H](O)[C@H](C)C(=O)[C@H](C)[C@@H](O)[C@H](C)/C=C/C(=O)O[C@H]2[C@@H](C)[C@@H](CC1)O[C@@]1(CC[C@@H](C)[C@@H](C[C@H](C)O)O1)[C@@H]2C` gave an IC50 of 0.0402 ± 0.0135 µM (F-type ATP synthase, Macaca mulatta muscle; ATP hydrolysis, on-column membrane affinity chromatography; together with: ATP 3 mM).
`CNC(C)Cc1ccc2n[se]nc2c1` (stereo not drawn) has an IC50 of 68.3 ± 30.5 µM (Solute carrier family 22 member 2 (SLC22A2, Homo sapiens, UniProt O15244)).
With `O=c1c(O)c(-c2cc(O)c(O)c(O)c2)oc2cc(O)cc(O)c12` the IC50 was over 75 µM (Xanthine dehydrogenase/oxidase (XDH, Homo sapiens, UniProt P47989); enzyme activity, inhibitor).
`Cc1ccc(NC(=O)c2c(Nc3ccccc3)[nH]c(=O)n(O)c2=O)cc1` gave an IC50 of 0.029 µM (Holliday junction resolvase (Fowlpox virus, UniProt Q9J546)).
The IC50 of `COc1cc(Nc2ncc(F)c(Nc3ccc4c(n3)NC(=O)C(C)(C)O4)n2)cc(OC)c1OC` is reported as over 10 µM (Caspase-2 (Homo sapiens, UniProt P42575)).
`CC(C)[C@H](NC(=O)[C@@H](NC(=O)[C@H](CCCNC(=N)N)NC(=O)[C@H](C)NC(=O)[C@H](C)NC(=O)[C@H](CCC(=O)O)NC(=O)[C@H](CO)NC(=O)[C@H](C)NC(=O)[C@@H](N)Cc1ccccc1)C(C)C)C(=O)O` has an IC50 of 0.734 µM (HLA class I histocompatibility antigen, A alpha chain allele A*26:01; peptide-MHC binding, radioligand competition binding).
For `CCCCC/C=C\C/C=C\C/C=C\C/C=C\CCCC(=O)Nc1ccc(O)cc1`, the IC50 was 0.055 ± 0.0086 µM (Sodium channel protein type 10 subunit alpha (SCN10A, Homo sapiens, UniProt Q9Y5Y9); peak sodium current, inhibitor, whole-cell patch clamp; ND7/23; holding potential -80 mV).
For `CC(C)C[C@H](NC(=O)[C@@H]1CCCN1C(=O)[C@H](Cc1c[nH]c2ccccc12)NC(=O)[C@H](CC(=O)O)NC(=O)[C@H](Cc1ccc(O)cc1)NC(=O)[C@@H](NC(=O)[C@@H](N)Cc1ccc(O)cc1)C(C)C)C(=O)N[C@H](C(=O)N[C@@H](Cc1ccccc1)C(=O)O)[C@@H](C)O`, the IC50 was 1.03 µM (HLA class I histocompatibility antigen, A alpha chain allele A*02:01; binding).
For `CC[C@H](C)[C@H](NC(=O)[C@H](CCCNC(=N)N)NC(=O)CNC(=O)[C@@H](NC(=O)[C@@H]1CCCN1C(=O)[C@@H](N)CCSC)[C@@H](C)CC)C(=O)N[C@@H](C)C(=O)N[C@@H](CCC(=O)O)C(=O)N[C@@H](CS)C(=O)N[C@H](C(=O)N[C@@H](CC(C)C)C(=O)O)[C@@H](C)CC`, the IC50 was over 40 µM (HLA class I histocompatibility antigen, A alpha chain allele A*01:01; binding, competitor, radioligand competition; two days, room temperature, HLA-A*01:01).
With `C[C@@]1(O)CC[C@@]2(C)[C@@H](CC[C@@H]3[C@@H]2CC[C@]2(C)[C@@H]([N+](=O)[O-])CC[C@@H]32)C1` the IC50 was 0.0179 ± 0.0062 µM (GABAA receptor, rat; radioligand binding; rat cerebral cortex homogenate; together with: 6.25 µM GABA).
The IC50 of `C[N+]1(C)CCN(c2ccccc2Cl)CC1` is reported as 245 ± 77 µM (Nicotinic acetylcholine receptor alpha1/beta1/epsilon/delta (Mus musculus, UniProt P02716+P04756+P09690+P20782); ion current, inhibitor, two-electrode voltage clamp; Xenopus oocytes).
With `CC(C)C[C@H](NC(=O)[C@@H](NC(=O)[C@H](Cc1c[nH]cn1)NC(=O)[C@H](CC(=O)O)NC(=O)[C@H](CC(N)=O)NC(=O)[C@H](CCC(N)=O)NC(=O)[C@H](C)N)C(C)C)C(=O)N[C@@H](Cc1ccc(O)cc1)C(=O)N[C@@H](Cc1ccc(O)cc1)C(=O)O` the IC50 was 75.7 µM (HLA class I histocompatibility antigen, A alpha chain allele A*02:01; binding).
The IC50 of `CC[C@H](C)[C@H](NC(=O)[C@H](CCCCN)NC(=O)[C@H](Cc1ccccc1)NC(=O)[C@H](Cc1ccc(O)cc1)NC(=O)CNC(=O)[C@H](CC(=O)O)NC(=O)[C@@H](NC(=O)[C@H](CC(N)=O)NC(=O)[C@@H](N)CCCCN)[C@@H](C)CC)C(=O)N[C@@H](Cc1ccc(O)cc1)C(=O)O` is reported as 11.8 µM (HLA class I histocompatibility antigen, A alpha chain allele A*02:01; peptide-MHC binding, radioligand competition binding).
`CSCC[C@H](NC(=O)[C@@H](N)Cc1c[nH]cn1)C(=O)N[C@@H](Cc1ccc(O)cc1)C(=O)N1CCC[C@H]1C(=O)N[C@@H](CC(N)=O)C(=O)N[C@@H](Cc1ccccc1)C(=O)N[C@H](C(=O)N[C@@H](CCC(N)=O)C(=O)N[C@@H](Cc1ccccc1)C(=O)O)C(C)C` gave an IC50 of 69.2 µM (HLA class I histocompatibility antigen, A alpha chain allele A*01:01; binding).
`C[C@H]1CN(c2n[nH]c3nc(N[C@H]4CC[C@H](NS(=O)(=O)CCC(F)(F)F)CC4)ncc23)CCO1` gave an IC50 of at least 20 µM (Elongin-B (Homo sapiens, UniProt Q15370); biochemical).
`CC[C@H](C)[C@H](NC(=O)[C@H](CCCNC(=N)N)NC(=O)[C@H](CC(=O)O)NC(=O)[C@H](Cc1ccccc1)NC(=O)[C@@H](NC(=O)[C@H](C)N)[C@@H](C)O)C(=O)N[C@@H](Cc1c[nH]cn1)C(=O)N[C@@H](CCC(N)=O)C(=O)N[C@@H](Cc1ccccc1)C(=O)O` gave an IC50 of 60 µM (HLA class I histocompatibility antigen, A alpha chain allele A*01:01; binding).
For `CC(=N)NCc1cccc(CN)c1`, the IC50 was 3.4 ± 1.6 µM (Nitric oxide synthase, inducible (Nos2, Mus musculus, UniProt P29477); nitric oxide production; 4T1; together with: cytokines).
For `COc1c2ccoc2cc2oc(=O)ccc12`, the IC50 was 0.0187 µM (Palmitoleoyl-protein carboxylesterase NOTUM (NOTUM, Homo sapiens, UniProt Q6P988); enzyme activity, inhibitor; together with: fluorogenic substrate DO).
The IC50 of `NC(N)=NCCC[C@H](NC(=O)[C@@H]1CCCN1C(=O)[C@H](N)Cc1ccccc1)C(=O)CCl` is reported as under 0.005 µM (Prothrombin (F2, Homo sapiens, UniProt P00734); enzyme activity, inhibitor; together with: FP-biotin 1 µM).
With `CC(=O)c1c(C)c2cnc(Nc3ccc(C4CCN(CCS(C)(=O)=O)CC4)cn3)nc2n(C2CCCC2)c1=O` the IC50 was 6.18 µM (Cytochrome P450 3A4 (CYP3A4, Homo sapiens, UniProt P08684); enzyme activity, inhibitor; human liver microsomes; together with: midazolam substrate).
For `CC[C@H](C)[C@H](NC(=O)[C@@H]1CCCN1C(=O)[C@H](Cc1c[nH]cn1)NC(=O)[C@H](CCCCN)NC(=O)[C@H](Cc1ccc(O)cc1)NC(=O)[C@@H](NC(=O)[C@@H](N)Cc1ccc(O)cc1)[C@@H](C)O)C(=O)N[C@@H](Cc1ccc(O)cc1)C(=O)N[C@@H](CC(C)C)C(=O)O`, the IC50 was 7.07 µM (HLA class I histocompatibility antigen, A alpha chain allele A*24:02; binding).
The IC50 of `C[C@@H](O)[C@H](NC(=O)[C@H](CO)NC(=O)[C@@H]1CCCN1C(=O)[C@H](CCC(=O)O)NC(=O)[C@H](Cc1ccccc1)NC(=O)[C@H](CCC(=O)O)NC(=O)[C@@H](N)CCC(=O)O)C(=O)N[C@@H](CCC(N)=O)C(=O)N[C@@H](Cc1ccc(O)cc1)C(=O)N[C@@H](CCC(=O)O)C(=O)N[C@@H](Cc1ccc(O)cc1)C(=O)O` is reported as 18.8 µM (HLA class I histocompatibility antigen, A alpha chain allele A*26:01; peptide-MHC binding, radioligand competition binding).
`CC[C@H](C)[C@H](NC(=O)[C@H](Cc1ccccc1)NC(=O)[C@@H]1CCCN1C(=O)CNC(=O)[C@H](Cc1ccc(O)cc1)NC(=O)[C@H](CCSC)NC(=O)[C@@H](N)CCCNC(=N)N)C(=O)N[C@@H](Cc1c[nH]cn1)C(=O)N[C@@H](Cc1ccccc1)C(=O)O` gave an IC50 of 0.705 µM (HLA class I histocompatibility antigen, A alpha chain allele A*24:02; binding).
`CCCc1cc(C(=O)OCC)c(NC(=O)c2cc(O)cc(O)c2)s1` gave an IC50 of over 100 µM (DNA repair protein REV1, C-terminal domain (Homo sapiens, UniProt Q9UBZ9); REV1 C-terminal domain-RIR interaction, inhibitor, fluorescence polarization displacement).
The IC50 of `CSCC[C@H](NC(=O)[C@H](Cc1c[nH]cn1)NC(=O)[C@H](CC(=O)O)NC(=O)[C@H](Cc1ccc(O)cc1)NC(=O)[C@H](CCC(N)=O)NC(=O)[C@@H](N)CCCCN)C(=O)N[C@@H](Cc1ccc(O)cc1)C(=O)N[C@@H](CCC(N)=O)C(=O)N[C@@H](CC(C)C)C(=O)O` is reported as 27.8 µM (HLA class I histocompatibility antigen, A alpha chain allele A*24:02; binding).
`COC(=O)C1CCN(C(=O)c2ccc(N(C)Cc3cnc4nc(N)nc(N)c4n3)cc2)CC1` gave an IC50 of over 100 µM (Thymidylate synthase (TYMS, Homo sapiens, UniProt P04818); inhibitor).

For quick reference, copied from above:
`CC[C@H](C)[C@H](NC(=O)[C@H](Cc1ccccc1)NC(=O)[C@@H]1CCCN1C(=O)CNC(=O)[C@H](Cc1ccc(O)cc1)NC(=O)[C@H](CCSC)NC(=O)[C@@H](N)CCCNC(=N)N)C(=O)N[C@@H](Cc1c[nH]cn1)C(=O)N[C@@H](Cc1ccccc1)C(=O)O` gave an IC50 of 0.705 µM (HLA class I histocompatibility antigen, A alpha chain allele A*24:02; binding).
With `O=c1c(O)c(-c2cc(O)c(O)c(O)c2)oc2cc(O)cc(O)c12` the IC50 was over 75 µM (Xanthine dehydrogenase/oxidase (XDH, Homo sapiens, UniProt P47989); enzyme activity, inhibitor).
The IC50 of `NC(N)=NCCC[C@H](NC(=O)[C@@H]1CCCN1C(=O)[C@H](N)Cc1ccccc1)C(=O)CCl` is reported as under 0.005 µM (Prothrombin (F2, Homo sapiens, UniProt P00734); enzyme activity, inhibitor; together with: FP-biotin 1 µM).
The IC50 of `C[N+]1(C)CCN(c2ccccc2Cl)CC1` is reported as 245 ± 77 µM (Nicotinic acetylcholine receptor alpha1/beta1/epsilon/delta (Mus musculus, UniProt P02716+P04756+P09690+P20782); ion current, inhibitor, two-electrode voltage clamp; Xenopus oocytes).
